{"data": "Values quoted from earlier work as cited in several papers", "note": "Protocols differ between the studies behind these lines. ± gives the spread as reported."}
{"Molecule": "CCC(C)(c1ccc(O)cc1)c1ccc(O)cc1", "target": "human FXR alpha", "assay": "antagonist, Tox21 qHTS or literature", "setting": "concentration not given", "endpoint": "activity call", "result": "active"}
{"Molecule": "O=C(N[C@H]1COC(=O)[C@@H](NC(=O)c2cccc(O)c2[O-])COC(=O)[C@@H](NC(=O)c2cccc(O)c2[O-])COC1=O)c1cccc(O)c1[O-].[Fe+3]", "target": "Escherichia coli ferric siderophore transporters", "assay": "substrate", "endpoint": "Km", "result": "~0.0001 µM"}
{"Molecule": "Ic1cncc(OC[C@@H]2CCN2)c1", "target": "GABA-A receptor (α4)2(β3)3", "assay": "agonist", "setting": "(α4)2(β3)3 form", "endpoint": "EC50", "result": "~0.01 µM"}
{"Molecule": "O=C(N[C@H](CO)[C@H](O)c1ccc([N+](=O)[O-])cc1)C(Cl)Cl", "target": "Escherichia coli ribosome", "assay": "binding, radioligand binding", "endpoint": "Kd", "result": "2.3 µM"}
{"Molecule": "c1cnc2cc3c(cc2n1)[C@@H]1CNC[C@H]3C1", "target": "α6β2* nicotinic receptor (rat)", "assay": "dopamine release, agonist", "test system": "striatal synaptosomes", "endpoint": "EC50", "result": "0.007 µM"}
{"Molecule": "tetrahydrofolate", "target": "serine hydroxymethyltransferase, Escherichia coli", "assay": "substrate", "endpoint": "Km", "result": "20 µM"}
{"Molecule": "5′-methylthioadenosine", "target": "Staphylococcus aureus MTAN", "assay": "substrate", "setting": "first active site", "endpoint": "Km", "result": "0.1 µM"}
{"Molecule": "O=C(O)CCCC[C@@H]1SC[C@@H]2NC(=O)N[C@@H]21", "target": "streptavidin", "assay": "atomic force microscopy", "setting": "concentration not given", "endpoint": "unbinding force", "result": "433 ± 33 pN"}
{"Molecule": "CC(=O)N(O)CCC[C@@H]1NC(=O)CNC(=O)CNC(=O)CNC(=O)[C@H](CCCN(O)C(C)=O)NC(=O)[C@H](CCCN(O)C(C)=O)NC1=O.[Fe+3]", "target": "Escherichia coli ferric siderophore transporters", "endpoint": "Kd", "result": "~0.0001 µM"}
{"Molecule": "CN1CCN(CCc2ccc(Cl)c(Cl)c2)CC1", "target": "sigma-1 receptor", "how to read": "reference: sigma-2 over sigma-1", "endpoint": "selectivity ratio", "result": "~50 fold"}
{"Molecule": "O=c1c(I)ccc2n1C[C@@H]1CNC[C@H]2C1", "target": "human α7 nAChR", "assay": "agonist", "test system": "Xenopus oocytes", "endpoint": "EC50", "result": "1.5 µM"}
{"Molecule": "C#CCN(C)CCCOc1ccc(Cl)cc1Cl.Cl", "target": "MAOA, rat", "assay": "5-HT deamination, inhibitor", "test system": "rat, liver, ex vivo", "setting": "subcutaneous, 0.3 mg/kg", "endpoint": "inhibition", "result": "~60%"}
{"Molecule": "NC(=O)[C@@H]1CC[C@@H]2CN1C(=O)N2OS(=O)(=O)O", "target": "PBP3", "setting": "highest tested 50 µM", "endpoint": "IC50", "result": "> 50 µM"}
{"Molecule": "CCC(C(=O)O)c1ccc2cc(OC)ccc2c1 (racemic)", "target": "COX-2", "assay": "enzyme activity", "setting": "concentration not given, added: arachidonic acid 10 µM", "endpoint": "inhibition", "result": "inactive"}
{"Molecule": "CC[C@H](C)[C@H](NC(=O)[C@@H](CCCNC(=N)N)NC(=O)[C@H](CCCNC(=N)N)NC(=O)[C@@H]1CCCN1C(=O)[C@@H]1CCCN1C(=O)[C@H](CCCNC(=N)N)NC(=O)[C@@H]1CCCN1C(=O)[C@H](CCCNC(=N)N)NC(=O)[C@@H]1CCCN1C(=O)[C@H](CC(C)C)NC(=O)[C@H](Cc1ccc(O)cc1)NC(=O)[C@@H]1CCCN1C(=O)[C@@H]1CCCN1C(=O)[C@H](CCCCN)NC(=O)[C@H](CC(=O)O)NC(=O)[C@@H](N)C(C)C)C(=O)N[C@@H](Cc1ccc(O)cc1)C(=O)N[C@@H](CC(N)=O)C(=O)N[C@H](CCCNC(=N)N)C(N)=O", "target": "Escherichia coli BL21(DE3)RIL ribosome", "assay": "fluorescence polarization", "endpoint": "Kd", "result": "0.09 ± 0.003 µM"}
{"Molecule": "CCOP(=O)(OCC)Oc1nc(Cl)c(Cl)cc1Cl", "target": "KIAA1363, mouse", "assay": "substrate", "test system": "brain membranes", "setting": "1 nM", "how to read": "reference: knock-out over wild type", "endpoint": "hydrolysis fold decrease", "result": "13 fold"}
{"Molecule": "O=c1ccc2ccccc2o1", "target": "rat monoamine oxidase A and B", "assay": "enzyme activity, inhibitor", "endpoint": "AC50", "result": "15 to 19 µM"}
{"Molecule": "C[C@]12CC[C@H]3[C@@H](CCC4=CC(=O)C=C[C@@]43O)[C@@H]1CCC2=O", "target": "oestrogen receptor beta", "assay": "binding, competition binding", "endpoint": "EC50", "result": "> 10 µM"}
{"Molecule": "CCOC(=O)CC(SP(=O)(OC)OC)C(=O)OCC (stereo not shown)", "target": "acetylcholinesterase", "assay": "enzyme activity, inhibitor", "test system": "thymus tissue", "setting": "20 min", "endpoint": "IC30", "result": "0.1 µM"}
